Published values collected from several papers.
Protocols differ between the studies behind these lines. Numbers after ± are the reported error.
BCHE: Cholinesterase (BCHE, Homo sapiens, UniProt P06276)
Mycosin-1: Mycosin-1 (Mycolicibacterium thermoresistibile, UniProt G7CDQ2)
PTGS2: Prostaglandin G/H synthase 2 (PTGS2, Homo sapiens, UniProt P35354)

Structure (SMILES)	target	assay	test system	setting	scale	inhibition
[N-]=[N+]=N[C@H]1O[C@H](CO)[C@@H](O)[C@H](O)[C@H]1O	GAA (Homo sapiens, UniProt P10253)	enzyme activity, inhibitor, fluorescence		1.43 mM, pH 4, lysate		9%
C[C@@](O)(C(F)F)[C@H](NC(=O)c1ccc(C#CC#CC2CC2)cc1)C(=O)NO	Stromelysin-1 (MMP3, Homo sapiens, UniProt P08254)	enzyme activity, inhibitor		30 µM		≤ 30%
O=C(O)/C=C/c1cc(O)cc(O)c1	BCHE	enzyme activity, inhibitor, Ellman		1000 µg/mL		82.1%
CC[C@H](C)[C@H](NC(=O)[C@H](CCCNC(=N)N)NC(=O)[C@H](CCCCN)NC(=O)[C@@H]1CCCN1C(=O)[C@@H]1CCCN1CCCN(CC[C@H](N)C(=O)O)C[C@H]1O[C@@H](n2cnc3c(N)ncnc32)[C@H](O)[C@@H]1O)C(=O)N[C@@H](C)C(N)=O	Protein arginine N-methyltransferase 7 (PRMT7, Trypanosoma brucei brucei, UniProt Q582G4)			10 µM		< 40%
N=C(Nc1ccc(NC(=N)N[N+](=O)[O-])cc1)N[N+](=O)[O-]	Mycosin-1	protease activity, inhibitor, quenched fluorescent peptide		150 µM, with: 20 µM fluorogenic peptide substrate	baseline: DMSO control	54.7%
O=c1c(O)c(-c2cc(O)ccc2O)oc2cc(O)cc(O)c12	BCHE	enzyme activity, inhibitor, Ellman		250 µg/mL		62.1%
Cc1ccc(N2CC3CCC(C2)N3C)cc1C(=O)N[C@H](C)c1cc(-c2cnn(C)c2)nc2ccccc12	CAPN1 (Homo sapiens, UniProt P07384)	enzyme activity		concentration not given		no inhibition
CC(C)C[C@H](NC(=O)[C@@H]1CCCN1C(=O)[C@@H]1NC(=O)[C@H](Cc2ccccc2)NC(=O)CNC(=O)[C@H](NC(=O)[C@@H](N)Cc2ccc(O)cc2)C(C)(C)SSC1(C)C)C(=O)N[C@@H](Cc1c[nH]c2ccccc12)C(=O)NCc1cc(C(F)(F)F)cc(C(F)(F)F)c1	OPRM1 (Cavia porcellus, UniProt P97266)	electrically stimulated contraction, agonist	guinea pig isolated ileum	1 µM		0.6%
CCS(=O)(=O)N1CCN(CC(=O)Nc2ccc(/C=C/C(=O)c3ccc(OC)c(OC)c3)cc2)CC1	BCHE	enzyme activity		1000 µM		30.4 ± 0.823%
O=C(O)CCCC(=O)O	BCHE	enzyme activity, inhibitor, Ellman		1000 µg/mL		78.9%
CC(C)C[C@@H](NC(=O)CNC(=O)/C=C/c1ccco1)C(N)=O	Mycosin-1	enzyme activity		150 µM	baseline: DMSO control	67%
S=C(NCc1ccccn1)NCc1ccccn1	BCHE	enzyme activity, inhibitor, Ellman		1000 µg/mL		70.1%
O=C1CSC(c2cccc(Br)c2)N1c1cc(Cl)ccc1O (centres unmarked)	ARP2/ARP3 (Saccharomyces cerevisiae, UniProt P32381+P47117)	actin polymerization, pyrenyl-actin		concentration not given		no inhibition
COc1cc(OC)cc(C(=O)/C=C/c2ccc(N(C)CCO)cc2)c1	PTGS2	enzyme activity, inhibitor, ELISA		40 µg/mL		80.7 to 92.5%
C1N2CN3CN1CP(C2)C3.CC(C)OC(=O)C(n1cccn1)n1cccn1.F[P-](F)(F)(F)(F)F.[Cu+]	P4HB (Homo sapiens, UniProt P07237)	enzyme activity, inhibitor		50 µM		~80%
CC(C)[C@H]1NC(=O)[C@H](CO)NC(=O)c2cc3cc(c2)C(=O)NC[C@H](NC(=O)[C@H](Cc2c[nH]cn2)NC(=O)[C@H](Cc2ccc(C(F)(F)P(=O)(O)O)cc2)NC(=O)[C@@H]2CCCN2C1=O)C(=O)N[C@@H](Cc1ccccc1)C(=O)N[C@@H](Cc1ccc2ccccc2c1)C(=O)N[C@@H](CCCNC(=N)N)C(=O)N[C@@H](CCCNC(=N)N)C(=O)N[C@@H](CCCNC(=N)N)C(=O)N[C@@H](CCCNC(=N)N)C(=O)N[C@H](C(=O)N[C@@H](CCCCN)C(N)=O)CNC3=O	PTPRC (Homo sapiens, UniProt P08575)	enzyme activity, inhibitor, absorbance		1 µM		≤ 10%
CC(C)=C1CC[C@]23CO[C@H](C2)[C@@](O)(C(=O)O)CC[C@@H]13	Dihydroxy-acid dehydratase astD, mitochondrial (astD, Aspergillus terreus, UniProt Q0CPG9)	enzyme activity, inhibitor		up to 8 mM		no inhibition
CC(C)C[C@@H]1NC(=O)[C@H](C(C)C)NC(=O)[C@H](C)NC(=O)[C@H](Cc2ccc(O)cc2)NC(=O)[C@H](CCC(N)=O)NC(=O)[C@H](CC(C)C)NC(=O)[C@@H](Cc2ccc(O)cc2)NC(=O)CSC[C@@H](C(N)=O)NC(=O)[C@H](CCC(=O)O)NC(=O)[C@H](CCCNC(=N)N)NC(=O)[C@H](CCCNC(=N)N)NC(=O)[C@H](CCCCN)NC(=O)[C@H](Cc2c[nH]cn2)NC(=O)[C@H](CCCNC(=N)N)NC1=O	Cathepsin E (CTSE, Homo sapiens, UniProt P14091)	enzyme activity		10 µM		inactive
CC[C@H](C)[C@@H]1NC(=O)[C@H](CC(C)C)NC(=O)CNC(=O)[C@H](CCCNC(=N)N)NC(=O)[C@H](Cc2c[nH]c3ccccc23)NC(=O)[C@H](CCSC)NC(=O)[C@H](CO)NC(=O)[C@H](CCC(=O)O)NC(=O)[C@H](Cc2ccccc2)NC(=O)[C@H](CC(=O)O)NC(=O)[C@H]([C@@H](C)O)NC(=O)CNC(=O)[C@H](CCC(=O)O)NC(=O)[C@H]([C@@H](C)O)NC(=O)CNC(=O)[C@H](CC(=O)O)NC1=O	MDM2 (Homo sapiens, UniProt Q00987)	protein-protein interaction, inhibitor, AlphaScreen		50 µM		> 50%
N#C[C@@H](/N=N/c1ccc(S(=O)(=O)O)cc1)C(N)=O	Mycosin-1	enzyme activity		150 µM	baseline: DMSO control	56%
O=C(O)/C=C/c1ccc(O)cc1	BCHE	enzyme activity, inhibitor, Ellman		250 µg/mL		64.9%
COc1cc(OC)c(C(=O)/C=C/c2ccc(N(C)CCO)cc2)c(OC)c1	PTGS2	enzyme activity, inhibitor, ELISA		40 µg/mL		80.7 to 92.5%
O=C(Nc1ccc(Br)cc1)c1cc(Br)cc(Br)c1O	Semaphorin-3C, with neuropilin-1 (SEMA3C, Homo sapiens, UniProt Q99985)	SEMA3C binding, inhibitor		25 µM, with: SEMA3C	baseline: DMSO	> 50%
O=C(C[P+]([Au-][Cl])(c1ccccc1)c1ccccc1)[O][Ti+2][O]C(=O)C[P+]([Au-][Cl])(c1ccccc1)c1ccccc1.c1cc[cH-]c1.c1cc[cH-]c1	AKT2 (Homo sapiens, UniProt P31751)	kinase activity		10 µM		≥ 50%
CC(=O)NC(Cc1ccc(Br)c(Cl)c1)C(=O)N[C@@H](C)C(=O)N1CCC[C@H]1C(=O)N1CCC[C@H]1C(=O)N[C@@H](CCC(=O)O)C(=O)N[C@@H](Cc1c[nH]cn1)C(=O)N[C@@H](CO)C(=O)N[C@H](C(=O)N[C@@H](C)C(N)=O)[C@@H](C)OP(=O)(O)O (some centres unmarked)	RPS6KA1 (Homo sapiens, UniProt Q15418)	enzyme activity, inhibitor		10 µM		0.32%
CCNC(=O)Nc1ccc(OC/C=C\COc2ccc(CCN)cc2)cc1	Transcription antitermination protein NusB, with NusE (nusB, Bacillus subtilis, UniProt P54520)	protein-protein interaction, inhibitor, competitive ELISA		25 µM, 15 min preincubation, 37 °C, with: 200 nM GST-NusE		50%

For quick reference, copied from above:
Structure (SMILES)	target	assay	test system	setting	scale	inhibition
S=C(NCc1ccccn1)NCc1ccccn1	BCHE	enzyme activity, inhibitor, Ellman		1000 µg/mL		70.1%
CC(C)[C@H]1NC(=O)[C@H](CO)NC(=O)c2cc3cc(c2)C(=O)NC[C@H](NC(=O)[C@H](Cc2c[nH]cn2)NC(=O)[C@H](Cc2ccc(C(F)(F)P(=O)(O)O)cc2)NC(=O)[C@@H]2CCCN2C1=O)C(=O)N[C@@H](Cc1ccccc1)C(=O)N[C@@H](Cc1ccc2ccccc2c1)C(=O)N[C@@H](CCCNC(=N)N)C(=O)N[C@@H](CCCNC(=N)N)C(=O)N[C@@H](CCCNC(=N)N)C(=O)N[C@@H](CCCNC(=N)N)C(=O)N[C@H](C(=O)N[C@@H](CCCCN)C(N)=O)CNC3=O	PTPRC (Homo sapiens, UniProt P08575)	enzyme activity, inhibitor, absorbance		1 µM		≤ 10%
